Published values of several laboratories.
Each numbered part is a random draw from the data of one study; scales do not carry over between parts. Substitutions count along the parent as printed.

Set 1
Target: UDP-N-acetylglucosamine--peptide N-acetylglucosaminyltransferase 110 kDa subunit (OGT, Homo sapiens, UniProt O15294)
Effect on: binding
Technique: phage display NGS
Form: peptide
Concentration: concentration not given
Setting: panning round 4
Reference: input library
Construct (O15294 1-1046): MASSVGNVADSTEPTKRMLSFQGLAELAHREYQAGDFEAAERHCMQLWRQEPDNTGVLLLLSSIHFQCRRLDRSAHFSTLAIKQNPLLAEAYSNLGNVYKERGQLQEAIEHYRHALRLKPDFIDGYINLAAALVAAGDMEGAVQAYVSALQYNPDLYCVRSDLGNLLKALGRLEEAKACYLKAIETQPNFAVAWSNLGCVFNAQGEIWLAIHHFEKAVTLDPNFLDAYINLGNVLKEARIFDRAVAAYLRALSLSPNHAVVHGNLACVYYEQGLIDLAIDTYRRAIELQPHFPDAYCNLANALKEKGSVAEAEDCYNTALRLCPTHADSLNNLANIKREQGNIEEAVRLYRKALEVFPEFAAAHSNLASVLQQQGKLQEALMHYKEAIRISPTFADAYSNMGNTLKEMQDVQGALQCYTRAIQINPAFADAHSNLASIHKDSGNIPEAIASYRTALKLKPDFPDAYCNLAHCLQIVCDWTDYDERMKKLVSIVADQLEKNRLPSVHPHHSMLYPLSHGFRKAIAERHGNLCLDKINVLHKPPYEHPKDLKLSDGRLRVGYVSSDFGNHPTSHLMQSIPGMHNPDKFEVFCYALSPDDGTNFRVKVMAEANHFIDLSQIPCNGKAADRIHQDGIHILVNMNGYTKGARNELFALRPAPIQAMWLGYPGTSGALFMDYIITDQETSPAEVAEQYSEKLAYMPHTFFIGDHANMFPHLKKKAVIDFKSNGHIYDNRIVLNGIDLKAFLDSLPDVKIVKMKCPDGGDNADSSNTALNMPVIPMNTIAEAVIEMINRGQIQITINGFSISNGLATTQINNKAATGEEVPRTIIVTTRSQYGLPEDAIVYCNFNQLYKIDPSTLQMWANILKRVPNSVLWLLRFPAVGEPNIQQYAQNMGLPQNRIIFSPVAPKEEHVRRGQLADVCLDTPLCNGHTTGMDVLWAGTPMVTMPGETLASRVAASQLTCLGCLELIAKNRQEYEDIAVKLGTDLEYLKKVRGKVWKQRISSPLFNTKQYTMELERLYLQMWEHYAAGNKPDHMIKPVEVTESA
Molecule	enrichment fold change
VQSKLMPAYQIQYKM	1.83
QFMPSYQMQYKMADI	2.13
NQYQPQYQILQAANR	1.62
NQQQPQYQILYAANR	1.59
NMYMPKYRITYPMYD	1.56
NQYQPQYQILYDANR	2
QSNYMPKYTIIIPKA	2.35
QEARSRFTPMYQITI	1.7

Set 2
Target: CCND1, cyclin fold, Cln2 fusion (human)
Technique: yeast growth competition, sequencing
Matrix: yeast
Setting: weak parent motif
Reference: not given
Reading: higher = stronger binding
Starting sequence: viral docking peptide; CKVKRKLFGSENI
Change	normalised enrichment score
CKVARKLFGSENI [K4A]	0.78
CKAKRKLFGSENI [V3A]	0.527
CKVKRALFGSENI [K6A]	0.536
CKVKRKLFASENI [G9A]	0.851
CKVKRKLAGSENI [F8A]	0.00921
CKVKAKLFGSENI [R5A]	0.0553
CKVKRKLFGSANI [E11A]	0.658
CKVKRKLLGSENI [F8L]	0.14

Set 3
Target: vanadate, free oxyanion
Technique: microfluidic competitive inhibition
Matrix: in vitro, cell-free expressed
Concentration: not given
Setting: derived from inhibition constants, unchanged parent 676 nM
Reading: lower = stronger binding
Starting sequence: PafA, mature enzyme, eGFP fusion (Elizabethkingia meningoseptica, UniProt Q9KJX5); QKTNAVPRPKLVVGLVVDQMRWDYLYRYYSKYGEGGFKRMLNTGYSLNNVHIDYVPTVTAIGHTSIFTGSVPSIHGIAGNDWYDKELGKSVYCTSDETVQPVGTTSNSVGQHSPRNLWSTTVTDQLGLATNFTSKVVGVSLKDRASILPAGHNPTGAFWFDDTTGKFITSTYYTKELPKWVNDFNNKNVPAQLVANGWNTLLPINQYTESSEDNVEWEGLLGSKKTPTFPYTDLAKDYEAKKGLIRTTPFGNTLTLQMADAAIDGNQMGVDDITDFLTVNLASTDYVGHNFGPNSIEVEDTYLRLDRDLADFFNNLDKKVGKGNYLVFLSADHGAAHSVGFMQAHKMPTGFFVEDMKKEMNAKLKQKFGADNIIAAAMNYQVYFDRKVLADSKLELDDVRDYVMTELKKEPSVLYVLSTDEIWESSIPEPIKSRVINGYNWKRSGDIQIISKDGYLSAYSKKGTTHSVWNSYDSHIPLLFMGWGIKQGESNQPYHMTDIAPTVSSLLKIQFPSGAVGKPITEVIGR
Change	oxyanion analog dissociation constant [nM]
N42G	570
G334A	896
W483G	1020
A310V	653
K508G	816
V16G	676
I296G	1020
H152V	744

Single results of other studies
SMILES	target	effect on	technique	concentration	endpoint	result
CCS(=O)(=O)c1cc2cc(C[C@@](O)(CC(C)(C)c3ccc(F)cc3C(N)=O)C(F)(F)F)[nH]c2cn1	Calcium-dependent protein kinase 1 (CDPK1, Plasmodium falciparum, UniProt P62344)	cell-free assay	competition with immobilised ligand	1 µM	remaining binding	99%
